Experimental data collected from several papers.
A part holds a random share of what one study measured. Changes are numbered by the printed parent chain.

Study 1
Target: Prothrombin, mature alpha-thrombin (F2, Homo sapiens, UniProt P00734)
Method: aptamer microarray, sandwich
Molecule type: DNA with 2'F-ANA
Sample: in vitro
Tested at: 200 nM
Notes: whole 15-mer aptamer, many near background
Added: Cy3 exosite-II aptamer, 400 nM
Reading: higher = stronger binding
Sequence: GGTTGGTGTGGTTGG
| Modification | mean fluorescence intensity |
| --- | --- |
| 2'F-ANA at 5 10 11 14 | 47 a.u. |
| 2'F-ANA at 2 3 5 6 8 9 | 120 a.u. |
| 2'F-ANA at 3 4 5 11 12 13 | 126 a.u. |
| 2'F-ANA at 3 6 8 9 10 11 12 15 | 440 a.u. |
| 2'F-ANA at 1 2 4 5 7 8 9 10 11 12 | 60.9 a.u. |
| 2'F-ANA at 2 4 7 8 13 14 15 | 134 a.u. |
| 2'F-ANA at 6 9 12 14 15 | 182 a.u. |

Study 2
Target: Interferon regulatory factor 3, full length, phosphomimetic (IRF3, Homo sapiens, UniProt Q14653, residues 1-427, S386D/S396D/S398D/S402D/T404D/S405D)
Method: protein-binding microarray
Molecule type: double-stranded DNA, one strand shown
Sample: in vitro
Tested at: 2540 nM top
Notes: 60-bp whole probe
Added: salmon DNA 0.4 mg/ml
Relative to: random background probes
Reading: higher = stronger binding
Shared flanks, not repeated: GCCTAGCAC … GTGCTAGGTCTTGATTCGCTTGACGCTGCTG
Residues (chain): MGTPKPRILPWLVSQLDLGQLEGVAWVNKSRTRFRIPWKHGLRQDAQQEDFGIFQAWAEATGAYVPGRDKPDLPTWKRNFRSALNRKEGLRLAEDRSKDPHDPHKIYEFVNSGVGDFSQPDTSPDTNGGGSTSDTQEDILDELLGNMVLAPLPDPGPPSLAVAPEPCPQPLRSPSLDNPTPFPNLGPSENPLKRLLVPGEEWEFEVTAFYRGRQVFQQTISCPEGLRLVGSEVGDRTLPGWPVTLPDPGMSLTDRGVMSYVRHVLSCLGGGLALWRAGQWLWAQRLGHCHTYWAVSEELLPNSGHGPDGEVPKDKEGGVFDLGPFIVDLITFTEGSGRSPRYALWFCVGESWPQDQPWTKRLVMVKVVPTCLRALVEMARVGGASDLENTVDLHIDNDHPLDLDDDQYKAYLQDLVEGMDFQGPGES
| Sequence | fitted relative affinity |
| --- | --- |
| TTAGGTCTCCTTTTCCTTTA | 5.09 z-score |
| TTAGATAGCAGTTTCGATTA | 3.39 z-score |
| TTAGGACAGGGTATCGGTTA | 0.442 z-score |
| GAGGATCTCAGTCTCGAGAC | 0.0416 z-score |
| TCATGTATATCTTCAGCACT | 0.00684 z-score |

Study 3
Target: CCNA1, cyclin fold, Cln2 fusion (human)
Method: yeast growth competition, sequencing
Sample: yeast
Notes: weak parent motif
Relative to: not given
Reading: higher = stronger binding
Parent: CDKN1A docking peptide (human); SKACRRLFGPVDS; partner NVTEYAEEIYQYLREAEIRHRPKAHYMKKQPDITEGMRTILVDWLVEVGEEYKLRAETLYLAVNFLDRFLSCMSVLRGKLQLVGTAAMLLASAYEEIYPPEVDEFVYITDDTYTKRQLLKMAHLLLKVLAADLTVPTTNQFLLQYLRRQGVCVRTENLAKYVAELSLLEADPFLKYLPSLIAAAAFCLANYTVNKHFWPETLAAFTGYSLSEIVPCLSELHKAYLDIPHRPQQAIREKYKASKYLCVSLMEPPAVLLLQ
| Substitution | normalised enrichment score |
| --- | --- |
| SKACRRLFFPVDS [G9F] | 0.526 |
| SKACRRLFGPVIS [D12I] | 0.376 |
| SKALRRLFGPVDS [C4L] | 0.213 |
| SKACHRLFGPVDS [R5H] | 0.0518 |
| SKACIRLFGPVDS [R5I] | -0.182 |

Other studies, line by line
| Substance | target | test | test system | setting | how to read | measurement | value |
| --- | --- | --- | --- | --- | --- | --- | --- |
| PhoQ, residues 284 288 289 292 302 303 TLMATV | PhoP, residues 12 14 15 18 19 SQCLL (Escherichia coli, UniProt P23836) | Sort-seq, refers to: YFP reporter | E. coli | PhoQ-PhoP variant library, added: 10 µM Mg2+ | relative to: high Mg2+ state, higher = stronger signaling | fold induction | 1.98 |

Some of these lines once more (study 1):
| Modification | mean fluorescence intensity |
| --- | --- |
| 2'F-ANA at 6 9 12 14 15 | 182 a.u. |
| 2'F-ANA at 3 4 5 11 12 13 | 126 a.u. |
| 2'F-ANA at 5 10 11 14 | 47 a.u. |
